Measured values of several laboratories.
Values joined by “and” are separate records of one study, mostly repeats; a detail may differ. Numbers after ± are the reported error.

| Structure (SMILES) | test | system | setting | how to read | endpoint | result |
| --- | --- | --- | --- | --- | --- | --- |
| O=C(CC(=O)c1ccccc1)c1ccccc1 | – | male Sprague-Dawley rats, plasma | po, 10 mg/kg, regular emulsion | – | absorption rate constant | 0.026 h⁻¹ |
| CNC(=O)c1ccc(-c2cnn3ccc(C(=O)N(C)c4ccc(Cl)c(C(=O)OC)c4)cc23)cc1 | – | beagle dogs, both sexes, plasma | oral, 250 mg/kg/day, day 14, 2-week toxicology study | – | AUC(0-8 h) | 0.248 µg·h/mL |
| CCNc1nc(Cl)nc(NC(C)C)n1 | LC-MS/MS | herbicide solution | 2 h, 40 °C, together with: 365 nm UV exposure | – | remaining amount | 34.9 ± 13.5% |
| ClC=C(Cl)Cl | – | human, exhaled alveolar breath | inhalation, 100 ppmv for 4 h | – | A2 coefficient | 6.47 µg/L and 5.96 µg/L and 4.32 µg/L and 10.1 µg/L |
| Cc1cc2c(C(C)C)c(O)c(O)c(C=O)c2c(O)c1-c1c(C)cc2c(C(C)C)c(O)c(O)c(C=O)c2c1O | – | acetonitrile extract of human plasma | 0.112 µg/mL, 24 h, 4 °C, autosampler | – | remaining concentration | 95.6% |
| CS(=O)(=O)CCCn1c(Cn2c(=O)n(CC(F)(F)F)c3ccncc32)cc2cc(Cl)ccc21 | – | RSV-infected infants | concentration not given, all dose cohorts | – | patients with high aPTT | 14% |
| C=C(C)[C@@H]1CCC(C)=C[C@H]1c1c(O)cc(CCCCC)cc1O | – | human, plasma | inhaled, 1.5 to 20 mg | – | average Cmax | 0.0353 ± 0.0413 µg/mL |
| CCCCCCCCCCCCCC(=O)NCC(=O)N[C@@H](Cc1ccc(O)cc1)C(=O)NCC(=O)N[C@@H](CCCNC(=N)N)C(=O)N[C@@H](CCCCN)C(=O)N[C@@H](CCCCN)C(=O)N[C@@H](CCCNC(=N)N)C(=O)N[C@@H](CCCNC(=N)N)C(=O)N[C@@H](CCC(N)=O)C(=O)N[C@@H](CCCNC(=N)N)C(=O)N[C@@H](CCCNC(=N)N)C(=O)N[C@@H](CCCNC(=N)N)C(=O)N[C@@H](C)C(=O)N[C@@H](CCCNC(=N)N)C(=O)N[C@@H](CO)C(=O)N[C@@H](CCCNC(=N)N)C(=O)N[C@@H](CC(C)C)C(=O)N[C@@H](C)C(=O)N[C@@H](CCC(=O)O)C(=O)N[C@@H](CC(C)C)C(=O)N[C@@H](CCCNC(=N)N)C(=O)NCC(=O)N[C@H](C(=O)N1CCC[C@H]1C(=O)N[C@@H](CCCNC(=N)N)C(=O)NCC(=O)N[C@@H](CC(C)C)C(=O)O)C(C)C | conditioned place preference | rat | intracerebroventricular, 10 µg in 5 µL, 5 pairings, test 24 h after last | relative to: total time | time in drug-paired chamber | 46.5 ± 5.9% |
| CSCC[C@@H]1NC(=O)[C@H](CC(=O)O)NC(=O)CNC(=O)[C@H](CCCNC(=N)N)NC(=O)[C@H](C)NC(=O)[C@H](CCC(=O)O)NC(=O)[C@H](CCCNC(=N)N)NC(=O)[C@@H]2CSSC[C@@H]3NC(=O)[C@H](CO)NC(=O)[C@H]([C@@H](C)O)NC(=O)[C@@H]4CCCN4C(=O)[C@H](C)NC(=O)[C@H](Cc4c[nH]c5ccccc45)NC(=O)[C@H](CC(=O)O)NC(=O)CNC(=O)[C@H](CCCNC(=N)N)NC(=O)CNC(=O)[C@H](CCC(N)=O)NC(=O)[C@@H]4CCCN4C(=O)[C@@H](NC(=O)CNC(=O)C(C)F)CSSC[C@H](NC(=O)CNC(=O)[C@H](C)NC(=O)[C@H](CC(C)C)NC(=O)[C@H](CSSC[C@@H](C(=O)NCC(N)=O)NC(=O)[C@H]([C@@H](C)O)NC(=O)[C@H](CCCNC(=N)N)NC(=O)[C@@H]4CCCN4C1=O)NC(=O)[C@H](CC(=O)O)NC(=O)[C@H](CO)NC(=O)[C@H](CC(=O)O)NC(=O)[C@H](CCC(N)=O)NC(=O)[C@H](CO)NC3=O)C(=O)N[C@@H](C(C)C)C(=O)N2 (stereo partly shown) [fluorine-18 labelled] | – | nude mice U-87 MG xenograft, stomach | intravenous, 1 h | – | tissue uptake | 1.07 ± 0.02 %ID/g |
| Nc1nc(N)nc(N)n1 | LC-MS/MS | non-pregnant female rat, serum | oral, 1000 mg/kg/day, 10 days | – | serum concentration | 155 µg/mL and 531 µg/mL and 32.1 µg/mL and 238 µg/mL and 284 µg/mL |
| CC[C@H](C)[C@H](NC(=O)[C@@H](N)CCCNC(=N)N)C(=O)N[C@H](C(=O)N1CCC[C@H]1C(=O)N[C@@H](C)C(N)=O)C(C)C | – | human, plasma | intravenous, 1 mg/kg, single dose, healthy volunteers | – | Cmax | 4.33 µg/mL |
| N#C[C@]1(CO)O[C@@H](n2cc(F)c3c(N)ncnc32)C[C@@H]1O | – | HBV-infected human-liver-chimeric mice, serum | oral, 1 mg/kg/day, 14 days | – | serum human albumin | no effect |
| Cc1cc(C(C#N)c2ccc(Cl)cc2)c(Cl)cc1NC(=O)c1cc(I)cc(I)c1O (stereo not shown) | HPLC, non-compartmental | Corriedale lambs, parasitized, plasma | oral, 10 mg/kg | – | elimination half-life | 14.4 days |
| CC1(C)S[C@@H]2[C@H](NC(=O)[C@H](C(=O)O)c3ccsc3)C(=O)N2[C@H]1C(=O)O | – | rat plasma | 2400 ng/mL, 24 h, room temperature, short-term stability | relative to: nominal concentration | relative error | -2.1% |
| CC(=O)C[C@@H](c1ccccc1)c1c(O)c2ccc(O)cc2oc1=O | substrate, measured: 7-hydroxywarfarin 4'-glucuronide | pooled human liver microsomes | – | – | Km | 111 µM |
| CC(C)C[C@H](NC(=O)[C@H](CC(=O)O)NC(=O)CNC(=O)[C@H](CCCNC(=N)N)NC(=O)[C@H](CC(C)C)NC(=O)[C@H](CC(N)=O)NC(=O)[C@@H]1CCCN1C(=O)[C@@H](NC(=O)[C@H](C)NC(=O)[C@H](CC(N)=O)NC(=O)CCOCCOCCOCCOCCOCCOCCOCCOCCOCCOCCOCCOCCOCCOCCOCCOCCOCCOCCOCCOCCOCCOCCOCCOCCOCCOCCOCCOCCNC(=O)CN1CCN(CC(=O)O)CCN(CC(=O)O)CC1)C(C)C)C(=O)N[C@@H](CCC(N)=O)C(=O)N[C@H](C(=O)N[C@@H](CC(C)C)C(=O)N[C@@H](C)C(=O)N[C@@H](CCC(N)=O)C(=O)N[C@@H](CCCNC(=N)N)C(=O)N[C@H](C(=O)N[C@@H](C)C(=O)N[C@@H](CCCNC(=N)N)C(=O)N[C@H](C(=O)NCCOCCOCCOCCOCCOCCOCCOCCOCCOCCOCCOCCOCCOCCOCCOCCOCCOCCOCCOCCOCCOCCOCCOCCOCCOCCOCCOCCOCCC(N)=O)[C@@H](C)O)C(C)C)C(C)C [fluorine-18 labelled] | – | female athymic nude mice, DX3puroβ6/DX3puro xenografts, liver | intravenous, 0.175 nmol | – | tissue uptake | ≤ 0.9 %ID/g |
| O[C@H]1CCCN[C@@H]1CCCn1cnc2c(Cl)c(Cl)ccc21 | – | human, plasma | oral, 600 mg single dose, capsule, geometric mean | – | AUC(0-last) | 1.01 µg·h/mL |
| CC[C@H](C)[C@H](NC(=O)[C@H](CO)NC(=O)[C@H](C)NC(=O)[C@@H](NC(=O)CNC(=O)[C@H](CO)NC(=O)[C@@H](NC(=O)[C@@H](NC(=O)[C@H](Cc1c[nH]cn1)NC(=O)[C@@H]1CCCN1C(=O)[C@@H](NC(=O)[C@H](CC(C)C)NC(=O)[C@H](CO)NC(=O)[C@H](CC(C)C)NC(=O)[C@@H](N)Cc1ccccc1)[C@@H](C)CC)[C@@H](C)CC)C(C)C)C(C)C)C(=O)N[C@@H](C)C(=O)N[C@@H](CCCCN)C(=O)N[C@@H](Cc1c[nH]cn1)C(=O)N[C@@H](Cc1ccccc1)C(N)=O | UPLC-MS/MS | rat plasma | 1.6 µg/mL, 10 days, -20 °C, long-term stability | – | concentration found | 1.57 µg/mL |
| CC(=O)N[C@H](CCCCNC(=O)C(C)F)C(=O)N[C@@H](CS)C(=O)N[C@@H](CS)C(=O)N[C@@H](CCC(=O)O)C(=O)N[C@@H](Cc1c[nH]cn1)C(=O)N[C@H](Cc1ccccc1)C(=O)N[C@@H](CCCNC(=N)N)C(=O)N[C@@H](Cc1c[nH]c2ccccc12)C(=O)N[C@@H](CS)C(=O)N[C@@H](CCCNC(=N)N)C(=O)N1CCC[C@H]1C(=O)N[C@H](C(N)=O)C(C)C (stereo partly shown) [fluorine-18 labelled] | – | C57BL/6 mice, male, B16-F10 tumour, liver | intravenous, 4 h | – | tissue uptake | 0.44 ± 0.11 %ID/g |
| Oc1cc(Cl)c(-c2cc(Cl)ccc2Cl)cc1Cl | – | Sprague-Dawley rat, male, serum | subcutaneous implant, 1% in implant, 28 d, low dose group | – | serum concentration | 16 ± 14 ng/g |
| CN[C@@](C)(C[18F])C(=O)O | – | mouse, blood | 2 h, tumour-bearing | – | tracer uptake | 0.5 %ID/g |
| [123I]c1cncc(OC[C@@H]2CCN2)c1 | SPECT | human, parietal lobe | intravenous bolus, 7.35 mCi | relative to: tissue over plasma | tissue/plasma ratio | 28.2 |

A few entries again:
| Structure (SMILES) | test | system | setting | how to read | endpoint | result |
| --- | --- | --- | --- | --- | --- | --- |
| CCCCCCCCCCCCCC(=O)NCC(=O)N[C@@H](Cc1ccc(O)cc1)C(=O)NCC(=O)N[C@@H](CCCNC(=N)N)C(=O)N[C@@H](CCCCN)C(=O)N[C@@H](CCCCN)C(=O)N[C@@H](CCCNC(=N)N)C(=O)N[C@@H](CCCNC(=N)N)C(=O)N[C@@H](CCC(N)=O)C(=O)N[C@@H](CCCNC(=N)N)C(=O)N[C@@H](CCCNC(=N)N)C(=O)N[C@@H](CCCNC(=N)N)C(=O)N[C@@H](C)C(=O)N[C@@H](CCCNC(=N)N)C(=O)N[C@@H](CO)C(=O)N[C@@H](CCCNC(=N)N)C(=O)N[C@@H](CC(C)C)C(=O)N[C@@H](C)C(=O)N[C@@H](CCC(=O)O)C(=O)N[C@@H](CC(C)C)C(=O)N[C@@H](CCCNC(=N)N)C(=O)NCC(=O)N[C@H](C(=O)N1CCC[C@H]1C(=O)N[C@@H](CCCNC(=N)N)C(=O)NCC(=O)N[C@@H](CC(C)C)C(=O)O)C(C)C | conditioned place preference | rat | intracerebroventricular, 10 µg in 5 µL, 5 pairings, test 24 h after last | relative to: total time | time in drug-paired chamber | 46.5 ± 5.9% |
